Published values pooled from the literature.
A part holds a random share of what one study measured.

Series 1 — technique: protein-binding microarray; molecule type: double-stranded DNA, one strand shown; matrix: in vitro; tested at: 2200 nM top; setting: 60-bp whole probe; together with: salmon DNA 0.4 mg/ml; relative to: random background probes; direction: higher = stronger binding; all sequences stand within: GCCTAGCAC … GTCTTGATTCGCTTGACGCTGCTG
Target: Interferon regulatory factor 7, full length, phosphomimetic (IRF7, Homo sapiens, UniProt Q92985, residues 1-503, S471D/S472D/S475D/S476D/S477D/S483D/S484D/S487D)
Residues (chain): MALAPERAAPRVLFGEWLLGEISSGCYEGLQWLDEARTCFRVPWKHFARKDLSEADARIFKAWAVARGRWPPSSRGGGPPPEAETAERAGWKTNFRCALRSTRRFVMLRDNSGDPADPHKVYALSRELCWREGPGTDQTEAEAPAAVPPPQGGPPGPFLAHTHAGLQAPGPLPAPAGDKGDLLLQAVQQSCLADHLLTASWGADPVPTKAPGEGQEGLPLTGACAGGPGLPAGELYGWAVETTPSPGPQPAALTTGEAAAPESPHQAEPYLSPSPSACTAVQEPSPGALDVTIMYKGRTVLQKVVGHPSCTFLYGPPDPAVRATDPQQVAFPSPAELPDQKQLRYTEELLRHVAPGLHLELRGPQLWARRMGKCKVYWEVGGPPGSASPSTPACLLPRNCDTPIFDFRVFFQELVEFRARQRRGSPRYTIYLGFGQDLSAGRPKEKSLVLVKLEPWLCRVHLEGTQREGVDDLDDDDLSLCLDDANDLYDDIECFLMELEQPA
Sequence | fitted relative affinity [z-score]
GACGGACTGGACTTTCCGGACGTGCTA | 0.267
TTAGGTATCGGGACTGGGTTAGTGCTA | -0.245
CTTTAACTCATTTTCATTTTGTGCTAG | 4.66
GACGGACTGGGTTTCGGGAGGTGCTAG | 0.271
ACCTGAGTCCCTATCTCCTCGTGCTAG | 1.1
TTAGGTCTCCTTTTCGTTTAGTGCTAG | 3.32
TCACTTCCCAATAATCTTACTGTGCTA | 2.39
GACGGTATCCGTTTCCTGACGTGCTAG | 1.48
GACGGACTGCTTTTCATGACGTGCTAG | 0.359

Series 2 — technique: protein-binding microarray; molecule type: double-stranded DNA, one strand shown; matrix: in vitro; tested at: 0.8 µM; setting: whole 60-bp probe, no competitor; direction: higher = stronger binding
Target: Centromere-binding protein 1, full length, N-terminal tag (CBF1, Saccharomyces cerevisiae, UniProt P17106, residues 1-351)
Sequence of UniProt P17106 (whole entry, looked up): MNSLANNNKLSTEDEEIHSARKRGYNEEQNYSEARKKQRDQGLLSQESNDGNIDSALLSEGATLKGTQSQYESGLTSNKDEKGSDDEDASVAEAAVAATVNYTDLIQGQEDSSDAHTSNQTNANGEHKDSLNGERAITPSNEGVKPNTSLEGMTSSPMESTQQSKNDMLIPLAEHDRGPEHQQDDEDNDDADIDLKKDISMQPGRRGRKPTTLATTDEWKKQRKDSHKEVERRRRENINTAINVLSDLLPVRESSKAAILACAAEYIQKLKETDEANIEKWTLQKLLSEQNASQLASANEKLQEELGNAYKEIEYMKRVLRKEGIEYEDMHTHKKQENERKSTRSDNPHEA
Sequence | fluorescence intensity [a.u.]
CCTAACTACTATAGCCACGGTATATAGCTTCGTACAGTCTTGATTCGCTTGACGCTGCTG | 517
GAACACTAGTCACATCACATGCCAGGCCTTTCTTAGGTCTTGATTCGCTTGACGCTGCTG | 1520
GAAAGCAAGCCACGCCATGTGATTAACCTTGCTTAGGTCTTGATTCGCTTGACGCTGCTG | 1790
TGTACGAAGCTATGTCACGTTCGTATAGTAGTTAGGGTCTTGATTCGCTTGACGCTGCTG | 1390
GAAACCAACTATGGTTGTGACGTAAAAGTGGAGTAGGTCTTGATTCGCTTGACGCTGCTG | 546
GAACCGGGACCAAAACACATGAAAGCGGTTCGCTAGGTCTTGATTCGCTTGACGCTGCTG | 522
CTAACATGACTGGACGGTGATGCAGTAGCTGTTTTCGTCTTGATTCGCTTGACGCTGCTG | 516
CCTAACTACTATATCCATGTGCCATAGCTTCGTACAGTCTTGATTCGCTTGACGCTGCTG | 612
TGTACGAAGCTATTGCACGTGAATATAGTAGTTAGGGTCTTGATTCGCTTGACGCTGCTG | 4130

Series 3 — technique: RNA Bind-n-Seq; molecule type: RNA; matrix: in vitro; tested at: not given; relative to: input RNA pool; direction: higher = stronger binding
Target: RING finger protein unkempt homolog, zinc fingers 1-6, GST-SBP tag (UNK, Homo sapiens, UniProt Q9C0B0, residues 30-357)
Sequence of UniProt Q9C0B0 (30-357, looked up): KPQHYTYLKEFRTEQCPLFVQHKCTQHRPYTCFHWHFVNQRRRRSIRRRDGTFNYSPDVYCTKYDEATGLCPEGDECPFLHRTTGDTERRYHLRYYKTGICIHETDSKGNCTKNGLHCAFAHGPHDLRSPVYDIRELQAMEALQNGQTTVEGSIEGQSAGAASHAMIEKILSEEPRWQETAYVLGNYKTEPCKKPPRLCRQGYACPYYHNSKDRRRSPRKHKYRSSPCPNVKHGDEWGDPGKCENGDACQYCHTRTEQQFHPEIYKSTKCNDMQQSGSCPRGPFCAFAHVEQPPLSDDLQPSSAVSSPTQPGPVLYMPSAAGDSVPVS
Setting: RNA with constant flanks, human and mouse sites, ends assumed
Sequence | bound/input enrichment
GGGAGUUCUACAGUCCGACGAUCGUUGUGCAUCAUUUAAAACAUUUUGUAUGUUUCUUCUUAUCUGUGUAUACAGUAUGUUCUUGAAUGAUGUUCAUUUGUCAGGAGAACUGUGAGAAAUAAACUAUGUGGAUACUGUCUGUUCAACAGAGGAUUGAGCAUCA | 0.251 ratio
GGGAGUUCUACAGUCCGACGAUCUAUGCCUUCACCAGCUAUGGCAUUAGCCCACAGGCCAAGAUAACUUAUAAUAUCAAAAUGAAUAGAAGAAAAUGUGUUCACUGGAAACUGGCUGUUGAGCCCCUCCAAUGGGAGCUGAGGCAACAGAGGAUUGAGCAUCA | 5.43 ratio
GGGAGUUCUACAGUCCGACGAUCUAGCCCUGGGGCCAUGUUCGAGUGGGGCUCUCAGCGCCUGGAGGUGAGCCACGUGCACAAAGUGGAGUGCGUGAUCCCCUGGCUCAACGACGCCCUGGUCUACUUCACCGUCUCCCUGCACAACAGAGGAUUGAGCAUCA | 0.104 ratio
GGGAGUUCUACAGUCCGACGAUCCUGCUAGUGCAUGGGGCUUUAGCCUUUCCUCUAGGGUUAGAUUCCUACCAUGGCUGUGUUAUAGCGGCUGCCCGCUAUGGCCGGGGCCGGGUGGUUGUGACUGGCCAUAAGGUAUUAUUCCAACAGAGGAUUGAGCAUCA | 0.284 ratio
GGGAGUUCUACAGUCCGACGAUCAAAGAUGCCUUAAGCCAUUUUGUAAUUGCAGGAGCACUCCUGUAGGAGGCCUGCUGAUGGCAUUUCAGAAGUACUCUGGUGAGACUGUUCAGGAAAGAAAACAGAAGGAUCGAAAGGCACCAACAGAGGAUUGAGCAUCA | 0.186 ratio
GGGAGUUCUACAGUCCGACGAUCGCUCGGAAUCGGCACUGUCUUGUCAACAUGGAAACAUCGUGCUCUUUUGAUUCUUCCAUCUGUAGUGGAGAAGGGGAUGAUAGUUUAAGGAUAGGUGGACAAGUUCAUGCUGUCCAGGCUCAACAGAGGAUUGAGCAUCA | 0.225 ratio
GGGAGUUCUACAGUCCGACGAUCAAAUAUCCUCAGCUAUUUCAGGUGACACUGGAUGUAGAACUACAGCCCCAUGACAAAGUAAUAGACUUAACUCCACCAUGGGAACAUUACUGCACAAAAGAUGUCAAUCCCAGCAUCCUCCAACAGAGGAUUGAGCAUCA | 0.217 ratio
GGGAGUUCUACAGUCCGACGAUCAAGACAACUUCUAUUGAAGUAUUUAUUUUACAAAGAUGAUUUUGUGUUUACCUGUGUUCACUUUGUUUCAUGUUGUUGCCACUGUUGGCUGCUAUUGGAGUCUGAUGGAGGGGUCCUUUGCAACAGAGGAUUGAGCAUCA | 0.31 ratio
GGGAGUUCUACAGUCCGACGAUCGCGGCAGCUGUUGCCCUUUCCUCUCUCGUUCAUGCUUUGGAUGAGUUAAACAUGGUCGCCAUCGUCCGAUAUGCUUAUGACAAAAGAUCUAAUCCUCAAGUUGGUGUAGCCUUCCCUUACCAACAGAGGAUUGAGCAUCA | 0.294 ratio
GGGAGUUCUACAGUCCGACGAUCAAACAUGAAUGUCAAGCAAAUGGACCAGAAGAUCUCAAUCGGGCUUGUAUUGCUGAAAAGUUAGGUGGAUCCUUAAUUGUAGCCUUUGAAGGAUGCCCUGUGUAGAUUAUUCAGUGCCACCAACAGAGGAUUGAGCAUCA | 0.518 ratio

Other studies, line by line
Substance | target | assay | system | setting | how to read | quantity | result
PhoQ, residues 284 288 289 292 302 303 ASVMEA | PhoP, residues 12 14 15 18 19 SYFRT (Escherichia coli, UniProt P23836) | Sort-seq, item: YFP reporter | E. coli | PhoQ-PhoP variant library, together with: 10 µM Mg2+ | relative to: high Mg2+ state, higher = stronger signaling | fold induction | 1.07

Repeated from above (series 2):
Sequence | fluorescence intensity [a.u.]
GAACACTAGTCACATCACATGCCAGGCCTTTCTTAGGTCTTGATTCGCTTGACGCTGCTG | 1520
GAAAGCAAGCCACGCCATGTGATTAACCTTGCTTAGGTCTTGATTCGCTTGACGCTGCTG | 1790
TGTACGAAGCTATGTCACGTTCGTATAGTAGTTAGGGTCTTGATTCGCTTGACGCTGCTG | 1390
